Experimental data of several laboratories.
Protocols differ between the studies behind these lines. Numbers after ± are the reported error.

| SMILES | tested on | test | test system | conditions | scale | endpoint | result |
| --- | --- | --- | --- | --- | --- | --- | --- |
| C[C@]1(O)C[C@@](N)(c2ccc(-c3nc4n(c3-c3ccccc3)COc3ccncc3-4)cc2)C1 |  |  | human, advanced or metastatic solid tumours | dose not given, all patients |  | patients with grade ≥3 AST increased | 5.9% |
| C[C@]1(CO)Cc2ncn(-c3ccc(C#N)c(Cl)c3)c2C(=O)O1 |  |  | human | 40 mg multiple doses, fasted |  | subjects with drug-related urine abnormality | 0% |
| C[C@@H](NC(=O)N1C(=O)[C@H](Cc2ccnc(N)c2)[C@H]1C(=O)O)C1CCCCC1 |  |  | healthy adult Chinese volunteers | continuous intravenous infusion, 1.0 mg/kg/h, 5-day infusion, CTCAE 5.0 grading |  | incidence of injection site erythema swelling | 12.5% |
| C=CCNc1c(O)cc2c(O)c1C[C@@H](C)C[C@H](OC)[C@H](O)[C@@H](C)/C=C(\C)[C@H](OC(N)=O)[C@@H](OC)/C=C\C=C(/C)C(=O)N2 |  |  | unresectable or metastatic STS, GIST, other | intravenous, 225 mg/m^2 |  | patients with vomiting TEAE | 33% |
| O=C(O)CCCOc1ccc(F)cc1-c1cc(-c2ccccc2C(F)(F)F)n(-c2ccccc2)n1 |  |  | Crl:CD(SD) rat, female | intravenous, 25 µg/kg, 1 days post-dose |  | pituitary weight | 15.7 ± 2 mg |
| COC(=O)[C@H]1[C@@H](OC(=O)c2ccccc2)C[C@@H]2CC[C@H]1N2 |  |  | rat, whole blood | 10 nM, 4 h, room temperature, bench-top storage |  | stability bias | 14.3% |
| CC(C)[C@@H]1NC(=O)CNC(=O)[C@H](CC(N)=O)NC(=O)[C@H](CCCNC(=N)N)NC(=O)[C@H](Cc2ccc(O)cc2)NC(=O)[C@H](C(C)C)NC(=O)[C@@H](NC(=O)[C@@H](NC(=O)[C@H](CC(N)=O)NC(=O)[C@H](Cc2c[nH]c3ccccc23)NC(=O)[C@H](C)NC(=O)[C@H](Cc2ccccc2)NC(=O)CN)C(C)C)CSSC[C@@H](C(=O)N[C@@H](Cc2cnc[nH]2)C(=O)N[C@@H](CCCNC(=N)N)C(=O)N[C@@H](CCCNC(=N)N)C(=O)N[C@@H](C)C(=O)N[C@@H](CC(N)=O)C(N)=O)NC(=O)[C@H](C(C)C)NC(=O)[C@H](CCCNC(=N)N)NC1=O |  |  | ICR mouse | ip, 10 mg/kg | direction not given | tremor score | 0 |
| CCCCCCCC(=O)N[C@@H](CCCCN)C(=O)N[C@@H](CCCCN)C(=O)N[C@@H](C)C(=O)N[C@@H](CC(C)C)C(=O)N[C@@H](CCCCN)C(=O)N[C@@H](CC(C)C)C(=O)N[C@@H](C)C(=O)N[C@@H](CCCCN)C(=O)N[C@@H](CCCCN)C(=O)N1CCC[C@H]1C(=O)N[C@@H](CC(C)C)C(=O)N[C@@H](CCCCN)C(=O)N[C@@H](CC(C)C)C(=O)N[C@@H](CC(C)C)C(=O)N[C@@H](CCCCN)C(N)=O |  |  | mouse ICR CD1 female, whole blood | intravenous bolus, 1 mg/kg |  | volume of distribution | 1.31 ± 0.324 L/kg |
| CC(C)(O)c1cc(Nc2cc(Oc3cn(C4CC4)nc3C3CCOCC3)ccn2)ccn1 |  | refers to: Diarrhea | Japanese patients with advanced cancer | oral, dose not given, any grade |  | treatment-emergent adverse events | 0% |
| CN1CC2c3ccccc3Oc3ccc(Cl)cc3C2C1 (centres unmarked) | African green monkey cells |  |  | 5 days |  | CC50 | 5.89 µM |
| O=C(Nc1ccccc1)C1CCN(C(=O)Oc2cccnc2)CC1 |  | psychotropic effects VAS | healthy women | 60 mg | baseline: pre-dose baseline, direction not given | change in Suspicious score | 0.1 |
| CCCCCOc1ccc(-c2ccc(-c3ccc(C(=O)N[C@H]4C[C@@H](O)[C@@H](OCC[N+](C)(C)C)NC(=O)[C@@H]5[C@@H](O)[C@@H](C)CN5C(=O)[C@H]([C@@H](C)O)NC(=O)[C@H]([C@H](O)[C@@H](O)c5ccc(O)cc5)NC(=O)[C@@H]5C[C@@H](O)CN5C(=O)[C@H]([C@@H](C)O)NC4=O)cc3)cc2)cc1 |  |  | adult ICU patients, mITT, serum | dose not given, EOT |  | potassium | 4.2 mmol/L |
| O=c1ccc2ccc3occc3c2o1 |  | post-procedure stability | rat plasma | 1000 ng/mL, 3 h, room temperature |  | accuracy | 107% |
| CC(C)Nc1ccnc(Nc2cccc(-c3cccnc3)c2)n1 |  | refers to: ALT | mouse, blood | intraperitoneal, 5 mg/kg |  | blood chemistry | 45 U/L |
| COc1cc2c(Oc3ccc4[nH]c(C)cc4c3F)ccnc2cc1OCC1(N)CC1 |  |  | paediatric recurrent refractory sarcoma | 12 mg |  | grade 1 or 2 Hypothyroidism | 54.5% |
| CCCC(C(=O)OCCN(CC)CC)(c1ccccc1)c1ccccc1 | African green monkey cells |  |  | 5 days |  | CC50 | 24 µM |
| CO[C@H]1C[C@@H]2CC[C@@H](C)[C@@](O)(O2)C(=O)C(=O)N2CCCC[C@H]2C(=O)O[C@H]([C@H](C)C[C@@H]2CC[C@@H](OC(=O)NCCOCCOCCOCCOCCOCCOCCOCCOCCC(=O)N3CCc4cc(Cn5nc(-c6ccc7oc(N)nc7c6)c6c(N)ncnc65)ccc4C3)[C@H](OC)C2)C[C@@H](O)[C@H](C)/C=C(\C)[C@@H](O)[C@@H](OC)C(=O)[C@H](C)C[C@H](C)/C=C/C=C/C=C/1C |  | dose-escalation trial | patients with advanced solid tumours | intravenous, all doses weekly |  | treatment-related serious AE incidence | 9% |

For quick reference, copied from above:
| SMILES | tested on | test | test system | conditions | scale | endpoint | result |
| --- | --- | --- | --- | --- | --- | --- | --- |
| CC(C)Nc1ccnc(Nc2cccc(-c3cccnc3)c2)n1 |  | refers to: ALT | mouse, blood | intraperitoneal, 5 mg/kg |  | blood chemistry | 45 U/L |
